Assay results pooled from the literature.
Compare with care: the assays were run in different laboratories.
Cell line: U-251

COC(=O)[C@H](C)NC(=O)[C@H](C)NC(=O)c1csc(-c2cccnc2)n1 — EC50 (cell growth or viability): > 30000 nM
Cc1ccc([N+](=O)[O-])cc1S(=O)(=O)N(C)/N=C/c1cnc2ccc(Br)cn12 — IC50 (MTS; NCI60 panel): 253 nM
CN(C)CCN1CCN(c2ccc3nc(-c4ccc5nc(-c6ccc(C(F)(F)F)cc6)[nH]c5c4)[nH]c3c2)CC1 — growth percent (SRB; 10 µM, 48 h): 60%
C1=[N+]2CCCC[N+]3=Cc4ccc5[n]4[Au-]23[n]2c1ccc2-c1nc2ccccc2nc1-5.F[P-](F)(F)(F)(F)F — IC50 (NCI60 five-dose screen): 2600 nM
CCCC(CCC)C(=O)OCc1cn(-c2cc3ccccc3oc2=O)nn1 — growth percentage (10 µM, CNS cancer cell line, NCI60): 96.8%
CC(C)OC(=O)[C@H](CO)NCc1cc(Cl)c(OCc2cccc(-c3ccccc3)c2Br)cc1OCc1cccnc1 — IC50 (cell growth or viability, MTT): > 10000 nM
Cn1ncc(-c2ccc3c(=O)[nH]nc(CN)c3c2)c1-c1c(F)c(Cl)cc(OC2CC2)c1C#N — IC50 (cell viability, inhibitor, CellTiter-Glo; 120 h, baseline-subtracted): 2440 nM
COc1cc(/C=C/C(=O)/C=C(O)/C=C/c2ccc(OCC(=O)N3CCOCCOCCOCCOCC3)c(OC)c2)ccc1OCC(=O)N1CCOCCOCCOCCOCC1 — inhibition (cell growth or viability, SRB; 25 µM): 100%
O=C(O)C(CO)NCc1cc(Cl)c(OCc2cccc(-c3ccccc3)c2Br)cc1OCc1cccnc1 (stereo not drawn) — IC50 (cell growth or viability, MTT): > 10000 nM
O=C(Nc1nnc2c1c(-c1ccc(Cl)cc1)nc1sc(=Cc3ccco3)c(=O)n12)c1ccccc1 (mixture of isomers) — cell growth (SRB; 10 µM, NCI60 single-dose screen; relative to: untreated): 48.7%
COc1cc(/C=C/C(=O)/C=C(O)/C=C/c2ccc(OCC(=O)N3CCOCCOCCOCCOCCOCC3)c(OC)c2)ccc1OCC(=O)N1CCOCCOCCOCCOCCOCC1 — inhibition (cell growth or viability, SRB; 25 µM): 100%
C=C(NC(=O)c1csc(-c2cccnc2)n1)C(=O)NC(=C)C(=O)OC — EC50 (cell growth or viability): 3600 nM

Some of these lines once more:
CCCC(CCC)C(=O)OCc1cn(-c2cc3ccccc3oc2=O)nn1 — growth percentage (10 µM, CNS cancer cell line, NCI60): 96.8%
